Experimental data gathered from unrelated publications.
Compare with care: the assays were run in different laboratories. ± marks the error that the study gave.

CCCCCCCCCn1cc(C(N)(CO)CO)nn1 — acid sphingomyelinase activity (APP/PS1 mouse, plasma, cortex, hippocampus; oral, up to 10 mg/kg; reference: PBS): decreased
CC(C)CN(CC(C)C)C(=O)/C=C/C=C/c1ccc2c(c1)OCO2 — centre distance (open field; C57BL/6N mice; ip, 0.3 mg/kg; reference: total distance): 10.7 ± 1.1%
C=C(c1cc(F)c(C(=O)O)c(F)c1)c1cc2c(cc1C)C(C)(C)CCC2(C)C — log2 fold change (RNA sequencing, measured: Ifit3 mRNA; rat, brain; dose not given, 24 h, single dose; reference: vehicle): -0.88
CCCCCCCCCCCCCCCC(=O)NCCCC[C@H](N)C(=O)N[C@@H](CC(=O)O)C(=O)N[C@H](C(=O)N[C@@H](Cc1c[nH]cn1)C(=O)N[C@@H](Cc1ccccc1)C(=O)N[C@@H](CCCNC(=N)N)C(=O)N[C@H](C(=O)N[C@@H](Cc1ccccc1)C(=O)N[C@@H](CCCNC(=N)N)C(=O)N[C@@H](CO)C(=O)N[C@@H](Cc1c[nH]cn1)C(=O)N[C@@H](CO)C(=O)N[C@@H](CC(=O)O)C(=O)N[C@@H](Cc1ccc(O)cc1)C(=O)N[C@@H](CCCNC(=N)N)C(=O)N[C@@H](CCCNC(=N)N)C(=O)N[C@H](C(=O)O)[C@@H](C)CC)[C@@H](C)O)[C@@H](C)O — blood glucose (C57BL/6J mouse, MCD diet; intraperitoneal, 1.2 nmol/g, 3 weeks, 3 times weekly): 94.7 ± 5.8 mg/dL
CC[C@H]1[C@@H](O)[C@@H]2[C@H](CC[C@]3(C)[C@@H]([C@H](C)CCOS(=O)(=O)[O-])CC[C@@H]23)[C@@]2(C)CC[C@@H](O)C[C@@H]12.[Na+] — liver total cholesterol (ob/ob NASH mice, liver; oral, 10 mg/kg once daily, 8 wk): 18 ± 1.5 mg/g tissue
COc1ccc(C2CC(c3ccc(C)cc3)=Nc3ccccc3S2)cc1OC (centres unmarked) — blood glucose (Wistar rat, STZ-induced diabetes; oral, 10 mg/kg once daily, day 1): 376 ± 4.23 mg/dL
CSCC[C@H](NC(=O)[C@H](CC(C)C)NC(=O)CNC(=O)[C@H](Cc1ccccc1)NC(=O)[C@H](Cc1ccccc1)NC(=O)[C@H](CCC(N)=O)NC(=O)[C@H](CCC(N)=O)NC(=O)[C@@H]1CCCN1C(=O)[C@H](CCCCN)NC(=O)[C@@H]1CCCN1C(=O)[C@@H](N)CCCNC(=N)N)C(N)=O — limb loss (diabetic mice, hindlimb ischemia; intravenous, 2.5 nmol/kg immediately and at day 6, 28 days): 57.1%
CN1CCC[C@]1(C)/C=C/S(=O)(=O)NC(=O)Nc1c2c(cc3c1CCC3)CCC2 — inhibition (IL-1β release, ex vivo whole blood; human, whole blood; oral, 50 mg single dose, 12 h, with: LPS and ATP): > 90%
COc1ccc(C2CC(c3ccc(C)cc3)=Nc3ccccc3S2)cc1 (centres unmarked) — LDL cholesterol (Wistar rat, STZ-induced diabetes, serum; 10 mg/kg, 28 days): 123 mg/dL
CC(C)C[C@@H]1NC(=O)[C@H](CS)NC(=O)[C@H](CCCCN)NC(=O)[C@H](CC(=O)O)N(C(=O)[C@@H](N)Cc2c[nH]c3ccccc23)CCCNC(=O)NCCCCN([C@@H](C)C(N)=O)C1=O — osteoclast number (DBA/1 mouse collagen-induced arthritis, synovium; intraperitoneal, dose not given; reference: PBS): no effect
Cc1cc(O)c(C=O)c2c1C(=O)Oc1c(CO)c(O)c3c(c1O2)C(O)OC3=O (centres unmarked) — fasting plasma glucose (streptozotocin-induced diabetic male rats, plasma; 5 mg/kg, 9 weeks): 207 ± 5.85 mg/dL

Some of these lines once more:
CSCC[C@H](NC(=O)[C@H](CC(C)C)NC(=O)CNC(=O)[C@H](Cc1ccccc1)NC(=O)[C@H](Cc1ccccc1)NC(=O)[C@H](CCC(N)=O)NC(=O)[C@H](CCC(N)=O)NC(=O)[C@@H]1CCCN1C(=O)[C@H](CCCCN)NC(=O)[C@@H]1CCCN1C(=O)[C@@H](N)CCCNC(=N)N)C(N)=O — limb loss (diabetic mice, hindlimb ischemia; intravenous, 2.5 nmol/kg immediately and at day 6, 28 days): 57.1%
CN1CCC[C@]1(C)/C=C/S(=O)(=O)NC(=O)Nc1c2c(cc3c1CCC3)CCC2 — inhibition (IL-1β release, ex vivo whole blood; human, whole blood; oral, 50 mg single dose, 12 h, with: LPS and ATP): > 90%
